Measured values gathered from unrelated publications.
Each line is one published result; not all experiments were run side by side. Several values in a cell are separate wells, animals, samples, runs or records. Numbers after ± are the reported error.

SMILES | test | test system | conditions | how to read | endpoint | value
C=C/C=C/C[C@@H](C)[C@@H](O)[C@H]1C(=O)N[C@@H](CC)C(=O)N(C)CC(=O)N(C)[C@@H](CC(C)C)C(=O)N[C@@H](C(C)C)C(=O)N(C)[C@@H](CC(C)C)C(=O)N[C@@H](C)C(=O)N[C@H](C)C(=O)N(C)[C@@H](CC(C)C)C(=O)N(C)[C@@H](CC(C)C)C(=O)N(C)[C@@H](C(C)C)C(=O)N1C |  | Wistar Kyoto rat, male, plasma | ip, 0.5 mg/kg/day, day 18 |  | plasma urea level | 4.8 ± 0.5 mmol/L
O=C1NC2(CC2)COc2ncc(F)cc2[C@H]2COCCN2c2ccn3ncc1c3n2 |  | Sprague-Dawley rat, male, blood | oral, 20 mg/kg/day, end of treatment, 4-week repeated-dose toxicity | relative to: red blood cells | reticulocytes | 3.12 ± 1.98%
COc1cnc2cccc(N3CCc4c(cc(Cn5ccnc5)cc4-c4cn(C)nc4C(F)(F)F)C3=O)c2c1 |  | CD-1 mice | intraperitoneal, 150 mg/kg once daily, day 2 |  | body weight | 28.7 ± 2.1 g
CC(C)C[C@@H](NC(=O)[C@@H](CCCNC(=N)N)NC(=O)[C@@H](Cc1c[nH]cn1)NC(=O)[C@@H](Cc1c[nH]c2ccccc12)NC(=O)[C@@H](Cc1c[nH]cn1)NC(=O)[C@@H](Cc1ccccc1)NC(=O)[C@H](NC(=O)[C@@H](Cc1ccc(O)cc1)NC(=O)CNC(=O)CNC(=O)CCOCCOCCOCCNC(=O)CN1CCN(CC(=O)O)CCN(CC(=O)O)CC1)[C@H](C)O)C(=O)N[C@H](CC(N)=O)C(=O)N1CCC[C@@H]1C(=O)O [gallium-68 labelled] |  | C57BL/6 mice, male | intravenous, 1.85 MBq, 30 min | relative to: tumour over liver | tissue ratio | 1.62 ± 0.42
CN1Cc2cc(Cl)ccc2-n2c(nnc2C2CCN(c3cccc([18F])n3)CC2)C1 | PET two-tissue compartment model | rhesus monkey, hippocampus | intravenous, dose not given, 80 min scan, baseline scan |  | total volume of distribution | 1.05 ± 0.29 mL/cm3
C/C(=N\OCCCN1CCCCC1)c1ccc(C(F)(F)F)cc1 |  | rhesus monkey | dose not given, after dosing |  | PR interval | 60 ms and 68 ms
CCCC[C@H]1C(=O)N(C)[C@@H](CCCC)C(=O)N[C@@H](CCCCNC(=S)Nc2ccc(CN3CCN(CC(=O)O)CCN(CC(=O)O)CC3)cc2)C(=O)N[C@H](C(=O)NCC(N)=O)CSCC(=O)N[C@@H](Cc2ccc(O)cc2)C(=O)N(C)[C@@H](C)C(=O)N[C@@H](CC(N)=O)C(=O)N2CCC[C@H]2C(=O)N[C@@H](Cc2cnc[nH]2)C(=O)N[C@@H](CCC(=O)O)C(=O)N2C[C@H](O)C[C@H]2C(=O)N[C@@H](Cc2c[nH]c3ccccc23)C(=O)N[C@@H](CO)C(=O)N[C@@H](Cc2cn(CC(=O)O)c3ccccc23)C(=O)N1C [fluorine-18 labelled] |  | huCD34 mice with A-375 melanoma, tumour | dose not given, 7 days, with: ipilimumab 4 mg/kg and pembrolizumab 4 mg/kg | relative to: pretreatment baseline | change in tumour uptake | 2.9 ± 1.89 %ID/cc
CCCCCCCCCCCCCCCC(=O)N[C@@H](CCC(=O)NCCOCCOCCC(=O)NCCOCCOCCC(=O)NCCCC[C@H](NC(=O)[C@H](CC(=O)O)NC(=O)[C@H](CC(C)C)NC(=O)[C@H](Cc1ccc(O)cc1)NC(=O)[C@H](CCCCN)NC(=O)[C@H](CO)NC(=O)[C@H](Cc1ccc(O)cc1)NC(=O)[C@H](CC(=O)O)NC(=O)[C@H](CO)NC(=O)[C@@H](NC(=O)[C@H](Cc1ccccc1)NC(=O)[C@@H](NC(=O)CNC(=O)[C@H](CCC(N)=O)NC(=O)[C@@H](CO)NC(=O)[C@@H](N)Cc1c[nH]cn1)[C@@H](C)O)[C@@H](C)O)C(=O)N[C@@H](CCCNC(=N)N)C(=O)N[C@@H](CCCNC(=N)N)C(=O)N[C@@H](C)C(=O)N[C@@H](CCC(N)=O)C(=O)N[C@@H](CC(=O)O)C(=O)N[C@@H](Cc1ccccc1)C(=O)N[C@H](C(=O)N[C@@H](CCC(N)=O)C(=O)N[C@@H](Cc1c[nH]c2ccccc12)C(=O)N[C@@H](CC(C)C)C(=O)N[C@@H](CC(C)C)C(=O)N[C@@H](CC(N)=O)C(=O)N[C@H](C(=O)NCC(=O)NCC(=O)N1CCC[C@H]1C(=O)N[C@@H](CO)C(=O)N[C@@H](CO)C(=O)NCC(=O)N[C@@H](C)C(=O)N1CCC[C@H]1C(=O)N1CCC[C@H]1C(=O)N1CCC[C@H]1C(=O)N[C@@H](CO)C(N)=O)[C@@H](C)O)C(C)C)C(=O)O |  | rhesus monkey, plasma | intravenous, 15.3 µg/kg, single dose |  | AUC(0-t) | 289 ng·h/mL
CC(C)[C@@H]1NC(=O)CNC(=O)[C@H](CC(N)=O)NC(=O)[C@H](CCCNC(=N)N)NC(=O)[C@H](Cc2ccc(O)cc2)NC(=O)[C@H](C(C)C)NC(=O)[C@@H](NC(=O)[C@@H](NC(=O)[C@H](CC(N)=O)NC(=O)[C@H](Cc2c[nH]c3ccccc23)NC(=O)[C@H](C)NC(=O)[C@H](Cc2ccccc2)NC(=O)CNC(=O)[C@H](CCCCN)NC(=O)[C@H](Cc2ccccc2)NC(=O)[C@H](Cc2ccccc2)NC(=O)[C@H](CCCCN)NC(=O)OCC2c3ccccc3-c3ccccc32)C(C)C)CSSC[C@@H](C(=O)N[C@@H](Cc2c[nH]cn2)C(=O)N[C@@H](CCCNC(=N)N)C(=O)N[C@@H](CCCNC(=N)N)C(=O)N[C@@H](C)C(=O)N[C@@H](CC(N)=O)C(N)=O)NC(=O)[C@H](C(C)C)NC(=O)[C@H](CCCNC(=N)N)NC1=O |  | ICR mice, blood | intraperitoneal, 5 mg/kg, day 5 |  | mean platelet volume | 6.77 ± 0.24 fL
CC[C@H](C)[C@H](NC(=O)CNC(=O)[C@H](Cc1c[nH]cn1)NC(=O)[C@H](CC(C)C)NC(=O)CNC(=O)[C@H](CC(C)C)NC(=O)[C@H](CCCCN)NC(=O)[C@H](Cc1ccccc1)NC(=O)[C@H](CC(C)C)NC(=O)[C@H](CCCCN)NC(=O)CNC(=O)[C@H](Cc1c[nH]c2ccccc12)NC(=O)[C@H](Cc1ccccc1)NC(=O)CN)C(=O)NCC(=O)N[C@@H](CC(C)C)C(=O)N[C@@H](CC(C)C)C(=O)N[C@@H](Cc1c[nH]cn1)C(=O)N[C@@H](CC(C)C)C(=O)N[C@@H](Cc1c[nH]cn1)C(=O)N[C@@H](CC(C)C)C(N)=O |  | zebrafish embryos 4 hpf, E3 medium | 1 h |  | acute toxic concentration | 1 µM
O=C(c1cc(Cc2n[nH]c(=O)c3ccccc23)ccc1F)N1CC(CNC2CC2)C1 |  | Wistar Han rat, male, blood | oral, 30 mg/kg daily, 4 weeks |  | haematocrit | 49.6 ± 3.7%
CSCC[C@H](NC(=O)CNC(=O)[C@H](CCCCN)NC(=O)[C@H](CC(C)C)NC(=O)[C@@H]1CCCN1C(=O)[C@H](CO)NC(=O)[C@H](Cc1c[nH]cn1)NC(=O)[C@H](Cc1c[nH]c2ccccc12)NC(=O)[C@H](CCCNC(=N)N)NC(=O)[C@H](CC(C)C)NC(=O)[C@H](CCCNC(=N)N)NC(=O)[C@H](Cc1c[nH]c2ccccc12)NC(=O)[C@H](CS)NC(=O)CCCCCNC(=O)CN1CCN(CC(=O)O)CCN(CC(=O)O)CCN(CC(=O)O)CC1)C(=O)O [copper-64 labelled] |  | BALB/c nude mouse, Huh-7 tumour, lymph node | intravenous, 1 h, ex vivo biodistribution |  | tissue uptake | 2.58 %ID/g
CC(C)(CCCC/C=C/CCCCCC(C)(C)C(=O)O)C(=O)O |  | ICR mice, both sexes | oral, dose not given, 3 h |  | plasma concentration | 9340 ng/mL

Some of these lines once more:
SMILES | test | test system | conditions | how to read | endpoint | value
O=C1NC2(CC2)COc2ncc(F)cc2[C@H]2COCCN2c2ccn3ncc1c3n2 |  | Sprague-Dawley rat, male, blood | oral, 20 mg/kg/day, end of treatment, 4-week repeated-dose toxicity | relative to: red blood cells | reticulocytes | 3.12 ± 1.98%
